Assay results of several laboratories.
“And” joins repeats or separate records; there may be more than shown. ± marks the error that the study gave. Values after ≈ are worked out from the molar mass of the structure shown.
PPARG ligand-binding domain: Peroxisome proliferator-activated receptor gamma, ligand-binding domain (PPARG, Homo sapiens, UniProt P37231)
UniProt P37231, sequence (whole entry, looked up): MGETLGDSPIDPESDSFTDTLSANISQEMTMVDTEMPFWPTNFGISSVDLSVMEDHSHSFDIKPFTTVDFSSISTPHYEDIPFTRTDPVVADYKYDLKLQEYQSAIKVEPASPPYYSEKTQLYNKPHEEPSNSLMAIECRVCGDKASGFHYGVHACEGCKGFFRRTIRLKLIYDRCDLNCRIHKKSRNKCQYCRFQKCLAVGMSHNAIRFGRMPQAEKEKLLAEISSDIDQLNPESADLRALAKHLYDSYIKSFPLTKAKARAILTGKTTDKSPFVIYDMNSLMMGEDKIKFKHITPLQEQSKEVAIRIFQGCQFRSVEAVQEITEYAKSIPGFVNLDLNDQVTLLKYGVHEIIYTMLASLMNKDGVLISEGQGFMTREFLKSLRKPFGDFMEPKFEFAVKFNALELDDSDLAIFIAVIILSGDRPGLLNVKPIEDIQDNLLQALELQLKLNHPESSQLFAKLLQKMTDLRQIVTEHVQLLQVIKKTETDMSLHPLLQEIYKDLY

C=C(NC(=O)c1csc(-c2nc3c(cc2O)-c2nc(cs2)C(=O)NC(C(C)O)C(=O)NC(=C(C)OC)c2nc(cs2)C(=O)NC2c4nc(cs4)C(=O)NC(COC(=O)c4c5c6c(cccc6n4O)COC(=O)C(OC4CC(C)(O)C(N(C)C)C(C)O4)C2OC5)c2nc-3cs2)n1)C(N)=O (stereo not shown)
Vz/F (Sprague-Dawley rat, male, plasma; intravenous infusion, 6 mg/kg, multiple doses, day 1): 31.1 L/kg

COC1CN([C@H]2CC[C@H]([C@@]3(C)Oc4c(Cl)cc(C(=O)NCc5c(SC)cc(C)[nH]c5=O)c(C)c4O3)CC2)C1
log2 fold change (RNA-seq, measured: SV2C; human, whole blood; dose not given, 24 h; reference: pretreatment baseline): 1.45

COc1ccnc(C(=O)N[C@H]2COC(=O)[C@H](Cc3ccccc3)[C@@H](OC(=O)C(C)C)[C@H](C)OC2=O)c1O
DT50 whole system (Swiss Lake sand sediment, aerobic dark; 20 °C): 2.37 days

C=CC(=O)Nc1cc(Nc2nccc(-c3cn(C4CC4)c4ccccc34)n2)c(OC)cc1N(C)CCNC
relative error (freeze-thaw stability; rat plasma; 80 ng/mL, three freeze-thaw cycles; reference: nominal concentration): 12.4%

O=C(Nc1cnccc1-c1ccc([18F])cc1)c1ccnc(NC(=O)C2CC2)c1
SUV (mice, transgenic, GSK-3β, early-stage, muscle; intravenous, dose not given, 120 min): 0.09

Nc1ncc(-c2cc(-c3cnn(CC(F)(F)F)c3)ncc2F)nc1C(=O)NC1CNCC(F)C1 (stereo not shown)
remaining binding (CLK1; KINOMEscan; 1 µM; reference: DMSO control): 35%

COCC1CN(C2CCN(c3cc(OC)c(Nc4ncc(Br)c(Nc5ccc6c(c5P(C)(C)=O)OCCO6)n4)cc3C)CC2)C1
AUC (human, plasma; oral, 150 mg, multiple doses, patients): 20800 ng·h/mL

Cc1c(Cc2ccc(Cl)c(OCC(=O)O)c2)c2ccc(C(=O)NCc3ccc(C(C)(C)C)cc3)cc2n1C
IC50 (PPARG ligand-binding domain; reporter gene, luciferase reporter; HEK293T, Gal4-PPARγ LBD): 150 nM

O=C(CCc1cn(CCOCCOCCOCC[18F])nn1)Nc1ccc(-c2nnc(-c3ccccn3)nn2)nc1
tumour to blood ratio (PET imaging; BALB/c nude mouse, LS174T xenograft, tumour, heart as blood; intravenous, 1 h, added: CC49-TCO 72 h before; reference: tumour over heart): 0.59

Cc1cc(NC(=O)[C@H](O)c2cc(F)cc(F)c2)ccc1-c1cnc(N)c(C(=O)NC(C)C)c1
dose-normalised Cmax (athymic nude Foxn1nu mouse, female, plasma; oral, 3 mg/kg): 124 ng·kg/mL/mg

CCCCN1C(=O)c2cccc3c(NCCCN4CCOCC4)ccc(c23)C1=O
fluorescence quantum yield (ethyl acetate): 0.34

Cc1c(Cc2ccc(OC(C)C(=O)O)cc2)c2ccc(C(=O)NC(C)c3ccc(C(F)(F)F)cc3)cc2n1C (mixture of isomers)
IC50 (PPARG ligand-binding domain; reporter gene, luciferase reporter; HEK293T, Gal4-PPARγ LBD): 5370 nM

C=CC(=O)Nc1cc(Nc2nccc(-c3cn(C)c4ccccc34)n2)c(OC)cc1N(C)CCNC
remaining compound (human, plasma; 72 h, -80 °C, high QC level): 91.9%

C=CC(=O)Nc1cccc(Cn2ncc3cnc(Nc4cnn(CCOC)c4)nc32)c1
percent of control (DAPK2 human; binding, KINOMEscan; 100 nM; lower = stronger binding): 100%

NS(=O)(=O)c1c(F)c(F)c(SCCO)c(F)c1F
pKa (sulfonamide group): 8.14

C[N+](C)(CCOCCOCCOCCNC(=S)Nc1ccc(C[C@H]2CN(CC(=O)[O-])CCN(CC(=O)[O-])CCN2CC(=O)[O-])cc1)C[c-]1cccc1.[64Cu+2].[Fe+2].c1cc[cH-]c1
tumour uptake (pretargeted PET; nude mouse, BxPC-3 xenograft; 8 h post-radioligand, 216 h lag time): 2.6 ± 0.2 %ID/mL

O=C1NC2(CC2)COc2ncc(F)cc2[C@H]2COCCN2c2ccn3ncc1c3n2
revertant colonies (Salmonella typhimurium; Ames test; TA100; 50 µg/plate, 48 h, added: rat liver S9): 82 ± 6 revertants/plate

COc1cc(OC)c(/N=N/c2ccc(C(=O)NO)cc2F)c(OC)c1
thermal half-life (Water, DMSO 0.5%; 50 µM, E isomer, after 370 nm irradiation): 1.27 h

N#C[C@@H]1CC(F)(F)CN1C(=O)CNC(=O)c1ccnc2c(NC(=O)[C@H](CCCCNC(=O)CCOCCOCCOCCOCCOCCOCCNC(=O)CN3CCN(CC(=O)[O-])CCN(CC(=O)[O-])CCN(CC(=O)[O-])CC3)NC(=O)CCCc3ccc(I)cc3)cccc12.[177Lu+3]
tracer uptake (U-87 MG tumour model; host not given, heart; 4 h, tumour-bearing): 1.54 %ID/g

COc1cc(N2CCN(C(=O)C3CCCN3)CC2)ccc1Nc1ncc(Cl)c(Nc2ccccc2P(C)(C)=O)n1 (stereo not shown)
body weight (nude mice, NCI-H3122 xenograft; intraperitoneal, 10 mg/kg every other day, day 11): 23.8 g and 26.5 g and 22.1 g and 25.3 g and 24.6 g

O=c1c2ccccc2[se]n1CCCCCCn1[se]c2ccccc2c1=O
solubility (shake-flask, RP-HPLC; DMF; 24 h, 25 °C): 17.3 ± 0.32 mg/mL (≈ 36.2 mM)

CN(O)C(=O)CCC(=O)NCCCN(CCCCN(CCCNC(=O)CCC(=O)N(C)O)C(=O)CCC(=O)N(C)O)C(=O)CCC(=O)N(C)O.[89Zr]
intact complex (radio-TLC; aqueous buffer; 7 d, pH 7.2, 37 °C, 89Zr-labelled complex, added: CoCl2 10-fold excess): 99 ± 0.7%

Repeated from above:
Cc1c(Cc2ccc(OC(C)C(=O)O)cc2)c2ccc(C(=O)NC(C)c3ccc(C(F)(F)F)cc3)cc2n1C (mixture of isomers)
IC50 (PPARG ligand-binding domain; reporter gene, luciferase reporter; HEK293T, Gal4-PPARγ LBD): 5370 nM
